Measured values collected from several papers.
“And” joins repeats or separate records; there may be more than shown. ± marks the error that the study gave.

Compound | tested on | test | system | setting | how to read | quantity | value
OCc1ccc(Nc2ccc3c(Nc4cccc(C(F)(F)F)c4)ncnc3c2)cc1 | MCF7 | annexin V-PE/DAPI |  | concentration not given, 24 h |  | late apoptotic cells | 16.8%
O=C(Nc1ccncc1)c1cc([N+](=O)[O-])ccc1Cl | Toxoplasma gondii | parasite growth | HFF, bradyzoite, alkaline-induced |  |  | EC90 | 2.91 µM
Cn1cc(Nc2nccc(-c3ccc4c(c3)CN(C3COC3)CC[C@H]4NC(=O)c3cn(C(C)(C)C)nn3)n2)cn1 | human B cells |  |  | 100 nM, 64 h, stimulation-upregulated genes, added: CD40L, anti-IgM, IL-21 |  | number of unchanged genes | 1580
C=CC1=C(C)c2cc3[n-]c(cc4nc(cc5[n-]c(cc1n2)c(C)c5C=C)C(C)=C4CCC(=O)O)c(CCC(=O)O)c3C.[Zn+2] | SH-SY5Y | RNA-seq, refers to: CEBPD mRNA |  | 5 µM, 5 h | baseline: untreated cells | fold change | 3.31
COc1ccc(NC(=O)c2c(Nc3ccccc3)sc(C(=O)NN=Cc3ccc(OC)c(O)c3)c2NC(C)=O)cc1 | HepG2 | annexin V-FITC/PI |  | concentration not given |  | early apoptotic cells | 4.19 ± 0.21%
CCOC(=O)c1nn(-c2cccc(Cl)c2)/c(=N/N=C(\C)c2ccc(NC(=O)c3ccccc3)cc2)s1 | MCF7 | MTT |  | 0.625 µM |  | cytotoxicity | 97.4%
COc1c(C)c(OC(C)=O)c(C)c(O)c1C(=O)/C=C/c1ccccc1 | FaDu | SRB |  |  | baseline: normal over FaDu IC50 | selectivity index | 0.85
C[C@H]1Oc2cc(cnc2N)-c2c(nn(C)c2C#N)CN(C)C(=O)c2ccc(F)cc21 | Ba/F3 EML4-ALK v1 | cell viability |  |  |  | Hill slope | 1.84
Cc1ccc(NC(=O)[C@H]2CCCN(C(=O)c3c(C)cccc3F)[C@H]2c2ccc(NC3CCCC3)cc2)cc1C(F)(F)F | human peripheral blood neutrophils | flow cytometry FSC/SSC |  | 1 µM, added: C5a 100 ng/mL, MPO-ANCA immune complex | baseline: unstimulated neutrophils | neutrophil swelling | 1.24 fold change and 1.85 fold change and 1.21 fold change and 1.42 fold change
O=C(/C=C/C=C/C=C/C1CCCCC1)NC1=C[C@@](O)(/C=C/C=C/C=C/C(=O)NC2=C(O)CCC2=O)[C@@H]2O[C@@H]2C1=O | SBC-5 | cell growth, CellTiter-Glo |  | 78 h |  | GI50 | > 30 µM
Cn1cc(-n2cnc3c(NCc4nc5cc(Cl)c(Cl)cc5[nH]4)nc(N4CCOCC4)nc32)cn1 | MDA-MB-231 | cell viability, CellCounting-Lite |  | 0.3048 nM, 37 °C | higher = more viable cells | luminescence signal | 470000 a.u. and 462000 a.u. and 429000 a.u.
CC(=O)c1nn(-c2ccc(Cl)cc2)/c(=N/N=C(\C)c2ccc(NC(=O)c3ccc(Cl)cc3)cc2)s1 | MCF7 |  |  | 2.5 µM |  | viability | 87.5%
c1ccc2c(c1)cc1ccc3cccc4ccc2c1c34 | HaCaT keratinocytes | LC-MS |  | 0.5 µM, 24 h pretreatment, then 6 h, added: imiquimod 0.5 µM | baseline: untreated | monohydroxylated imiquimod metabolite formation | ~10 fold
Nc1cccc2c1C(=O)N(C1CCC(=O)NC1=O)C2=O (stereo not shown) | MM1.S | XTT |  | 3 µM |  | viability | 14% and 13% and 9%
CC/C(=N\NC(=O)NCc1cccc(O)c1)c1ccc(O)c(C)c1O | SK-OV-3 | Western blot, refers to: YAP |  | 10 µM, 6 h, 2D culture, unit not given | baseline: β-actin | protein level | 1.37 ± 0.17
Cc1cc(C)n(-c2nc(-c3ccc(Cl)cc3)c3c(NC(=O)c4ccccc4)nnc-3[nH]2)n1 | Malme-3M | SRB |  | 10 µM, NCI60 single-dose screen | baseline: untreated | cell growth | 77.8%
CCn1cc(-c2cc(Cn3ccnc3)cc3c2CCN([C@H](c2cc(OC)ccn2)C2CC2)C3=O)c(C(F)(F)F)n1 | KP2 | cell growth |  | 120 h |  | EC50 | > 30000 nM
Cc1ccc(C=NNC(=O)C2CC(=O)N(c3ccc(F)cc3F)C2)cc1 (stereo not shown) | PPC-1 and fibroblast spheroids | MTT |  | 10 µM, day 8 |  | viability reduction, up to | 30%
COc1cnc2cccc(N3CCc4c(cc(Cn5ccnc5C)cc4-c4cn(C)nc4C(F)(F)F)C3=O)c2c1 | NCI-H1792 | cell growth, inhibitor |  | 120 h |  | EC50 | 121 nM
Cn1cc(-c2ccc(-c3cncc(Cl)c3N3CCC4(CCNC4=O)CC3)cc2)cn1 | COLO 205 | gene expression, microarray, refers to: CDC20 mRNA |  | concentration not given, 6 h | baseline: untreated cells | log2 fold change | -2.05
COc1cc(/C=C/C(=O)N2CCC=CC2=O)cc(OC)c1OC | Toxoplasma gondii | parasite growth | HFF, bradyzoite, alkaline-induced |  |  | EC90 | 15.5 µM
CCCN1CCN(c2ccc3[nH]c(-c4ccc5[nH]c(-c6ccc(OCC)c(OCC)c6)nc5c4)nc3c2)CC1 | SNB-75 | SRB |  | 10 µM, 48 h |  | growth percent | -77.9%

Some of these lines once more:
Compound | tested on | test | system | setting | how to read | quantity | value
OCc1ccc(Nc2ccc3c(Nc4cccc(C(F)(F)F)c4)ncnc3c2)cc1 | MCF7 | annexin V-PE/DAPI |  | concentration not given, 24 h |  | late apoptotic cells | 16.8%
O=C(Nc1ccncc1)c1cc([N+](=O)[O-])ccc1Cl | Toxoplasma gondii | parasite growth | HFF, bradyzoite, alkaline-induced |  |  | EC90 | 2.91 µM
Cn1cc(Nc2nccc(-c3ccc4c(c3)CN(C3COC3)CC[C@H]4NC(=O)c3cn(C(C)(C)C)nn3)n2)cn1 | human B cells |  |  | 100 nM, 64 h, stimulation-upregulated genes, added: CD40L, anti-IgM, IL-21 |  | number of unchanged genes | 1580
